Published values collected from several papers.
A part holds a random share of what one study measured.

Sample 1
Structure (SMILES): CC(=O)O/N=C1/C(c2c(O)[nH]c3cc(Br)ccc23)=Nc2ccccc21
Observed: enzyme activity
Action: inhibitor
Concentration: 0.5 µM
Relative to: control
target	remaining activity
PNCK (Homo sapiens, UniProt Q6P2M8)	96.3%
Cyclin-dependent kinase 9, with cyclin K (CDK9, Homo sapiens, UniProt P50750)	64.3%
MET (Homo sapiens, UniProt P08581)	98.2%
CAMK4 (Homo sapiens, UniProt Q16566)	86.1%
MAPK11 (Homo sapiens, UniProt Q15759)	83.4%
CLK3 (Homo sapiens, UniProt P49761)	75.1%
DDR2 (Homo sapiens, UniProt Q16832)	89.8%
PAK3 (Homo sapiens, UniProt O75914)	99.1%
Cyclin-dependent kinase 1, with cyclin A (CDK1, Homo sapiens, UniProt P06493)	77.5%
MARK4 (Homo sapiens, UniProt Q96L34)	77.6%
GRK4 (Homo sapiens, UniProt P32298)	97.6%
TXK (Homo sapiens, UniProt P42681)	46.4%
ROCK1 (Homo sapiens, UniProt Q13464)	94.6%
DCLK2 (Homo sapiens, UniProt Q8N568)	90.2%

Sample 2
Structure (SMILES): COc1ccc2[nH]c3c4[nH]c5ccc(OC)cc5c4c4c(c3c2c1)C(=O)NC4=O
Method: competitive binding panel
Concentration: 1 µM
Relative to: vehicle
target	assay	remaining binding
DAPK1 (Homo sapiens, UniProt P53355)		22%
PIK3C2B (Homo sapiens, UniProt O00750)		94%
PIM1 (Homo sapiens, UniProt P11309)		46%
MYLK (Homo sapiens, UniProt Q15746)		6.9%
MAP3K11 (Homo sapiens, UniProt Q16584)	measured: MLK3	5.6%
ABL2 (Homo sapiens, UniProt P42684)		82%

Sample 3
Structure (SMILES): Nc1c(C(=O)NCc2ccc(C(=O)NCCCC3CCCCC3)cc2)cnn1-c1ccccc1
Observed: cell-free assay
Method: competition with immobilised ligand
Concentration: 0.1 µM
target	remaining binding [%]
PAK2 (Homo sapiens, UniProt Q13177)	66
EPHB3 (Homo sapiens, UniProt P54753)	96
EGFR (Homo sapiens, UniProt P00533, del747-750/T751S)	84
CDK11B (Homo sapiens, UniProt P21127)	100
ALK (Homo sapiens, UniProt Q9UM73, C1156Y)	100
Cyclin-dependent kinase 4, with cyclin D1 (CDK4, Homo sapiens, UniProt P11802)	100
TRPM6 (Homo sapiens, UniProt Q9BX84)	100

Sample 4
Species: mouse
Matrix: microsomes or S9
Concentration: 2 µM
Time: 0.5 h
Structure (SMILES)	remaining compound [%]
Cn1ccc(-c2ccc(-c3cc(Br)cnc3N)nc2)n1	18.1
O=C(c1ccco1)N1CCN(C(=O)c2ccc(C[S+]([O-])Cc3ccccc3Cl)o2)CC1 (centres unmarked)	4.84
CCN(CC)c1ccc(/C=N/n2c(C)nnc2C)cc1	74.4
O=C(Cc1c[nH]c2ccccc12)N1CCc2cc(-c3ccno3)ccc21	1.48
COc1ccc([N+](=O)[O-])cc1C(=O)Nc1cc(C(F)(F)F)cc(C(F)(F)F)c1	74.4

A few entries again (sample 1):
target	remaining activity
Cyclin-dependent kinase 1, with cyclin A (CDK1, Homo sapiens, UniProt P06493)	77.5%
MARK4 (Homo sapiens, UniProt Q96L34)	77.6%
GRK4 (Homo sapiens, UniProt P32298)	97.6%
